Assay results collected from several papers.
Numbered parts are unrelated; each lists some results of a single study. Positions count from the first letter of the parent shown.

Sample 1 — technique: RNA Bind-n-Seq; molecule type: RNA; medium: in vitro; tested at: 200 nM; notes: whole 134-nt RNA, ends assumed; with: 150 mM LiCl; baseline: input library; direction: higher = stronger binding; library: 7-deaza-guanosine replaces G
Target: Ras GTPase-activating protein-binding protein 1, full length (G3BP1, Homo sapiens, UniProt Q13283)
Chain of UniProt Q13283 (whole entry, looked up): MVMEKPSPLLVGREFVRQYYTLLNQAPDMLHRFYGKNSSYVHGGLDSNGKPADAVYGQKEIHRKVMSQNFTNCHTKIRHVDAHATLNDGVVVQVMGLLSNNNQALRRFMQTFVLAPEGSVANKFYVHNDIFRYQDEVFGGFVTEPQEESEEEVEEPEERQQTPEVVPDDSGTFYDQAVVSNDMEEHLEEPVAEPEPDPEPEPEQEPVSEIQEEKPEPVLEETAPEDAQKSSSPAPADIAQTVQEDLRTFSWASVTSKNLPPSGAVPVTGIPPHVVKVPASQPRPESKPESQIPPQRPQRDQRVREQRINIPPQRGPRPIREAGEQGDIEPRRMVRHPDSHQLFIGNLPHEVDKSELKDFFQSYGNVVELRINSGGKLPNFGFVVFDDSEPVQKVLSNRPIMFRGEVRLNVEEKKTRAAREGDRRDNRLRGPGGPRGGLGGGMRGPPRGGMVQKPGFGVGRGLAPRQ
`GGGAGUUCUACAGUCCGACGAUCCUCAAGUCCUGUGCUACACAUCGUAUGUACCGAAUCGGGCGGGGCGGGCGGGGAAAGUAUUAUGUUACGCCGUUCGGAUCUGCACUUCCAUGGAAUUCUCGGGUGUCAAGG` has a log2 enrichment of -0.0706.
With `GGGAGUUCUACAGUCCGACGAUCUGUGCUACACAUCGUAUGUACCGAAUCGGGAAAAAAAGGGGAAAAAAAGGGGAAAAAAAGGGGAAAGUAUUAUGUUACGCCGUUCGGAUCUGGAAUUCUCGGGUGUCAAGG` the log2 enrichment was 0.671.
With `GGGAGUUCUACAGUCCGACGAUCCAAGUCCUGUGCUACACAUCGUAUGUACCGAAUCGGUGGUUUUUGGUUUUUUUGGAAAGUAUUAUGUUACGCCGUUCGGAUCUGCACUUCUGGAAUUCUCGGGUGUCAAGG` the log2 enrichment was -0.309.
For `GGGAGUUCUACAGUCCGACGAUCGCAGGAAGUAAAAACAAAUGGAAAUGCUUCGGAUAGUGGCAGGGGUGGGGGUUGAAAAGGAAAGGGUGGGAUGGGAGUGGGUAAAGAGUUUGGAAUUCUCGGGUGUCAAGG`, the log2 enrichment was 0.678.
The log2 enrichment of `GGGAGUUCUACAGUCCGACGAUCCUGUGCUACACAUCGUAUGUACCGAAUCAAAUUUUUUUAAACCCCCCCAAACCCCCCCAAAAAAGUAUUAUGUUACGCCGUUCGGAUCUGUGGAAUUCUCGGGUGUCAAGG` is reported as 0.0271.
For `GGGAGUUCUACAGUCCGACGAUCAGUCCUGUGCUACACAUCGUAUGUACCGAAUCGGGAAAAAAAGGGUUUUUGGGAGGGAAAGUAUUAUGUUACGCCGUUCGGAUCUGCACUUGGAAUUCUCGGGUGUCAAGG`, the log2 enrichment was -1.16.
With `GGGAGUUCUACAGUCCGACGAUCCACAGACAACACGCACCCACACAGACACAGAGGGAAGGGGUUAGGAUGGGGACAGGGUGCACAGCAGGGCGGGGUAGGACCCCAGCCCCUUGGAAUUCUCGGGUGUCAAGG` the log2 enrichment was -1.11.
For `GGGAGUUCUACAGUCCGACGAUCUAACUUUAGAGGAGGAUCUGAUGGAUAUGGCAGUGGACGUGGAUUUGGGGAUGGCUAUAAUGGGUAUGGAGGAGGACCUGGAGGUCGCAAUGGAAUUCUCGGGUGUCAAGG`, the log2 enrichment was 0.164.
The log2 enrichment of `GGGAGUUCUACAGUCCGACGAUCAAGUCCUGUGCUACACAUCGUAUGUACCGAAUCGGGUGGGUUUUUGGGAAAAAGGGAAAGUAUUAUGUUACGCCGUUCGGAUCUGCACUUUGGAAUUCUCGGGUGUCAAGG` is reported as 0.247.
For `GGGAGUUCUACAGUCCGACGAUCCCUGUGCUACACAUCGUAUGUACCGAAUCGGCCCCCCCGGGGCCCCCCCGGCCCCCCCGGAAAGUAUUAUGUUACGCCGUUCGGAUCUGCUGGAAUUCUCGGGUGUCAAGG`, the log2 enrichment was 0.11.

Sample 2 — technique: RNAcompete; molecule type: RNA; medium: in vitro; tested at: 20 nM; notes: 7-mer, probes averaged, single round; baseline: mean of 7-mers; direction: higher = stronger binding
Target: PABPC1L2, full length, GST fusion (mouse, UniProt A0ABA7IW68)
Target sequence (chain): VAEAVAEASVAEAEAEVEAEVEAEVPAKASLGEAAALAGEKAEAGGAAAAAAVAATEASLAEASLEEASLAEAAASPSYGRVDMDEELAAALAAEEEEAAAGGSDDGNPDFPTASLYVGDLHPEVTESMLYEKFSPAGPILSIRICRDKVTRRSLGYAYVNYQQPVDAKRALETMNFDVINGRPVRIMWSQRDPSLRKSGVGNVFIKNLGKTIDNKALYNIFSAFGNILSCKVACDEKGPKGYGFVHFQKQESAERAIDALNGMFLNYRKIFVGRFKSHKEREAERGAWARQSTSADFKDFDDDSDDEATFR
For `AGUAGCA`, the 7-mer Z-score was -0.0228.
With `GGUCUCC` the 7-mer Z-score was -0.293.
`UGUUCAU` gave a 7-mer Z-score of -0.36.
`AGAAGAU` gave a 7-mer Z-score of 0.0932.
For `CGGUCGC`, the 7-mer Z-score was -0.235.
With `ACGUUAC` the 7-mer Z-score was -0.195.
`GGCCACC` has a 7-mer Z-score of -0.222.
With `CCGGACA` the 7-mer Z-score was -0.0718.
`UCGGGUA` has a 7-mer Z-score of 0.0189.

Sample 3 — target: CCNF, cyclin fold, Cln2 fusion (human); technique: yeast growth competition, sequencing; medium: yeast; notes: strong parent motif; baseline: not given; direction: higher = stronger binding
Starting sequence: BRCA2 docking peptide (human); PSIKRNLLNEFDR
For `PSIKRNLLNEFDM [R13M]`, “normalised enrichment score” read 2.68.
`PSEKRNLLNEFDR [I3E]`: “normalised enrichment score” 0.407.
`PSLKRNLLNEFDR [I3L]` — result for “normalised enrichment score”: 2.45.
`PSIKRNLLNESDR [F11S]`: “normalised enrichment score” -0.144.
For `PSIKRELLNEFDR [N6E]`, “normalised enrichment score” read 0.979.
`PSIIRNLLNEFDR [K4I]`: “normalised enrichment score” 2.6.
Under “normalised enrichment score”, `PSIKRNLLNEFDT [R13T]` is recorded as 2.67.
For `PSIKRNLLNEQDR [F11Q]`, “normalised enrichment score” read 0.849.

Single results of other studies
With `PhoQ, residues 284 288 289 292 302 303 SSTLSG` the fold induction was 11.6 (PhoP, residues 12 14 15 18 19 TPWLV (Escherichia coli, UniProt P23836); Sort-seq, item: YFP reporter; E. coli; PhoQ-PhoP variant library, with: 10 µM Mg2+; baseline: high Mg2+ state, higher = stronger signaling).

Some of these lines once more (sample 1):
With `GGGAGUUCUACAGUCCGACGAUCUGUGCUACACAUCGUAUGUACCGAAUCGGGAAAAAAAGGGGAAAAAAAGGGGAAAAAAAGGGGAAAGUAUUAUGUUACGCCGUUCGGAUCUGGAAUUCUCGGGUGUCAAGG` the log2 enrichment was 0.671.
For `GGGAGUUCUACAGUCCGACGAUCCCUGUGCUACACAUCGUAUGUACCGAAUCGGCCCCCCCGGGGCCCCCCCGGCCCCCCCGGAAAGUAUUAUGUUACGCCGUUCGGAUCUGCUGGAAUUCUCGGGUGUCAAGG`, the log2 enrichment was 0.11.
